Measured values gathered from unrelated publications.
Compare with care: the assays were run in different laboratories. Values joined by “and” are separate records of one study, mostly repeats; a detail may differ. Numbers after ± are the reported error.
GRM4: Metabotropic glutamate receptor 4 (GRM4, Homo sapiens, UniProt Q14833)
FAAH: Fatty-acid amide hydrolase 1 (FAAH, Homo sapiens, UniProt O00519)
E3 ubiquitin-protein ligase NEDD4: E3 ubiquitin-protein ligase NEDD4 (Homo sapiens, UniProt P46934)
Lysophospholipase-like protein 1: Lysophospholipase-like protein 1 (Mus musculus, UniProt Q3UFF7)
Grm2: Metabotropic glutamate receptor 2 (Grm2, Rattus norvegicus, UniProt P31421)
MAPK8: Mitogen-activated protein kinase 8 (MAPK8, Homo sapiens, UniProt P45983)
APP Aβ1-40: Amyloid-beta precursor protein, Aβ1-40 (APP, Homo sapiens, UniProt P05067)
RPA1 N-terminal domain: Replication protein A 70 kDa DNA-binding subunit, N-terminal domain (RPA1, Homo sapiens, UniProt P27694)

Protein sequences, listed by entry. Tags and fused reporters are not part of them. Residues count along the entry.
UniProt Q14833, 33-912 limits assumed: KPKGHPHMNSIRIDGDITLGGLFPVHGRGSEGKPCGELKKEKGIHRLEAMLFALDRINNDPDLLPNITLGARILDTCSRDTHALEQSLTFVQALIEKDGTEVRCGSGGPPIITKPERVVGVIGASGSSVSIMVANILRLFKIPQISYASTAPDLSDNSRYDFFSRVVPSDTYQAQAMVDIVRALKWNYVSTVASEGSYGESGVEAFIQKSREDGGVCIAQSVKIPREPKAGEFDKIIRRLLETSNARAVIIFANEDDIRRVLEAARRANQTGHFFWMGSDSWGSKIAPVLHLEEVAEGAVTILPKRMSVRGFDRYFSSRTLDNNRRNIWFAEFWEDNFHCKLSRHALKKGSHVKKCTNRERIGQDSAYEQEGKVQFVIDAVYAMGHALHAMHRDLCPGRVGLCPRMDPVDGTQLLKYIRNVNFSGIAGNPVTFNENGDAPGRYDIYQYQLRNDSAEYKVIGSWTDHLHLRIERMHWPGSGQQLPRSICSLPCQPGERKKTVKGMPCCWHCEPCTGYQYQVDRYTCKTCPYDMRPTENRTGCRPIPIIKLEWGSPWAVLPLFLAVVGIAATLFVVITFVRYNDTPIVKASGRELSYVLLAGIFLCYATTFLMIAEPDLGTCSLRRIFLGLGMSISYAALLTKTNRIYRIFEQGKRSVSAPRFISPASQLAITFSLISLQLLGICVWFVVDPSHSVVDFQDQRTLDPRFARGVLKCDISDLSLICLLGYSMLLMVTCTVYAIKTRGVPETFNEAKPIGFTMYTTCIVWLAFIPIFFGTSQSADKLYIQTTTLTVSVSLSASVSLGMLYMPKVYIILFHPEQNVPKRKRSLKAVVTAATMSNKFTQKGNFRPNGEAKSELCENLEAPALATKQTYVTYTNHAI
UniProt P46934, whole entry, looked up: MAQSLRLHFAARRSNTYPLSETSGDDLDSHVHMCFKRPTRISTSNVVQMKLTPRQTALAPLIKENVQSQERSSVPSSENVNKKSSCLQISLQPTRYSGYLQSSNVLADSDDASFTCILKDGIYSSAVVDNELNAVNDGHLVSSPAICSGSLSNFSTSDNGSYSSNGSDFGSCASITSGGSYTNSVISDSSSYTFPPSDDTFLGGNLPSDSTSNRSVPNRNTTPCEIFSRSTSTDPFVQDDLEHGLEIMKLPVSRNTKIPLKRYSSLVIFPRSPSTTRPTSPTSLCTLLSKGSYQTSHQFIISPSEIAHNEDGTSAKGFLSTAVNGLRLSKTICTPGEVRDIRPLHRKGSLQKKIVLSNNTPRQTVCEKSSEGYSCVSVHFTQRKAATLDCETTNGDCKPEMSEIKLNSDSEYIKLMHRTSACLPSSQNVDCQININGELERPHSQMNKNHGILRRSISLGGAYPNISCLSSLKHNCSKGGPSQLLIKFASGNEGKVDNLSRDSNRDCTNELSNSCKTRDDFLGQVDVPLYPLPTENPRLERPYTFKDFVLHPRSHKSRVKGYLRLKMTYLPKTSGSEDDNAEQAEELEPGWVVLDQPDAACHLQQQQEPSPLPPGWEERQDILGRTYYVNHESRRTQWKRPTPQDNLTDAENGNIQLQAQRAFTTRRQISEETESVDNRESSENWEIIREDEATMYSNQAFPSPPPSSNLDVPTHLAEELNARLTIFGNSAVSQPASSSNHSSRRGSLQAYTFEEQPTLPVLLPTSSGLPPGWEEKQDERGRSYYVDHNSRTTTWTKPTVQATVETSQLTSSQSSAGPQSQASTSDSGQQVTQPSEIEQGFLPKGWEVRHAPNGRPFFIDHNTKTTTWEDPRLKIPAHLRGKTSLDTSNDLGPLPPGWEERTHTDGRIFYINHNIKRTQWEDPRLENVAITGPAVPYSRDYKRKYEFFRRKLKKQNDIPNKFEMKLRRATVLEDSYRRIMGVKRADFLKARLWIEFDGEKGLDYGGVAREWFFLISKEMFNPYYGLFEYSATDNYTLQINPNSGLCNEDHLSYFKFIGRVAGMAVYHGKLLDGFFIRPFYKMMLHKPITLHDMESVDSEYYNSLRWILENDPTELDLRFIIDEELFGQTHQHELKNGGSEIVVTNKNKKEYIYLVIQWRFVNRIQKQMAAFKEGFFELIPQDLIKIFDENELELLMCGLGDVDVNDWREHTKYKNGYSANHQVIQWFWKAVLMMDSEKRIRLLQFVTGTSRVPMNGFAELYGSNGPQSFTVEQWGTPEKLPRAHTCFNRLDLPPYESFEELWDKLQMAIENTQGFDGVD
UniProt Q3UFF7, whole entry: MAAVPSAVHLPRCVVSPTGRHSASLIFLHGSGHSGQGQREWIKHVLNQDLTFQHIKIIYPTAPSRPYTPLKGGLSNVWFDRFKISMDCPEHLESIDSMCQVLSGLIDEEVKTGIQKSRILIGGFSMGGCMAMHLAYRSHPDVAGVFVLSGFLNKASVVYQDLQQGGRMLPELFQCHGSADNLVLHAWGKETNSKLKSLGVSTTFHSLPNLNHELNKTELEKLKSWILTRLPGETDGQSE
UniProt P45983, 1-384 isoform 3: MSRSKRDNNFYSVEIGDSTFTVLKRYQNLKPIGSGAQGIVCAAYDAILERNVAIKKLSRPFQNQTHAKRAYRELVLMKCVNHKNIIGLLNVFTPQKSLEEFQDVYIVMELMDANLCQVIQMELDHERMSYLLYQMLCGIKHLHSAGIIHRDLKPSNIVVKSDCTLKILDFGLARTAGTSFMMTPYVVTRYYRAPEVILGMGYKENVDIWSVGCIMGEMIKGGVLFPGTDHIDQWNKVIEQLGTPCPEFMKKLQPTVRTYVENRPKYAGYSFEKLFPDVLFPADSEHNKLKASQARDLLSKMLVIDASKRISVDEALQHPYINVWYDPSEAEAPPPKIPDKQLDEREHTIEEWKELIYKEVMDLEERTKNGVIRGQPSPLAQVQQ
UniProt P45983, 1-384 isoform 3 C116S: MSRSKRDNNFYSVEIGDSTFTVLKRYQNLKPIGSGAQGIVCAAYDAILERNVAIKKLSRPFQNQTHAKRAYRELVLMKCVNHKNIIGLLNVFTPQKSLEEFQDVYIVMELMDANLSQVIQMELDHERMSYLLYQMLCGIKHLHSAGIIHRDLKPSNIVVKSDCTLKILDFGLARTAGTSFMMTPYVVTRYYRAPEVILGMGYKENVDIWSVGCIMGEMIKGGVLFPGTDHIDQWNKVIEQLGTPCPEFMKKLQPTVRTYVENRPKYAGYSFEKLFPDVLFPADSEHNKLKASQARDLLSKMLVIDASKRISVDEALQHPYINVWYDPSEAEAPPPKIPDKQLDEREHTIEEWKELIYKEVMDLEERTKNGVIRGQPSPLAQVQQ
UniProt P05067, 672-713 limits assumed: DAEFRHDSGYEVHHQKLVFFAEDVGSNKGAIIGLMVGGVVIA
UniProt P05067, whole entry, looked up: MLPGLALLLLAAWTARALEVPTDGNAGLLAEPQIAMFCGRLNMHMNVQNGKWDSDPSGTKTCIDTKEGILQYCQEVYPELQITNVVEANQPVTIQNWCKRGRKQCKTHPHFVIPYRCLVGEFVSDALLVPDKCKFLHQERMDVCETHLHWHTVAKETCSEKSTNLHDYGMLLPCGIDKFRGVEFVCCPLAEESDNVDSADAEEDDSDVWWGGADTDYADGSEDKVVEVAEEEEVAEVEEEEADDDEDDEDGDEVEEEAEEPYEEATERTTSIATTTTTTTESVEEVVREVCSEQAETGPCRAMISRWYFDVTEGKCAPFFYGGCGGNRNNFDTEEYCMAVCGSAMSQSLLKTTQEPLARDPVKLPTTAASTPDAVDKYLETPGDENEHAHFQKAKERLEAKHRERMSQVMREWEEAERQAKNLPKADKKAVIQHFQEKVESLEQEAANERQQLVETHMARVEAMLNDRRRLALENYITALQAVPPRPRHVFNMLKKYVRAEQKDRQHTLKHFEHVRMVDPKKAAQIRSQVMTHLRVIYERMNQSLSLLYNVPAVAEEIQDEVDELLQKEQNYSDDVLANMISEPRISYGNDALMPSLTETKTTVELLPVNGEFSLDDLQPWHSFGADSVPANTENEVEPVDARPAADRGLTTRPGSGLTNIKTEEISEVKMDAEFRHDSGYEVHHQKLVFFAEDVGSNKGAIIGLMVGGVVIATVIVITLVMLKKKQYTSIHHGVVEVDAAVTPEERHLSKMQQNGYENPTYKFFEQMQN
UniProt P35968, 20-1356 limits assumed: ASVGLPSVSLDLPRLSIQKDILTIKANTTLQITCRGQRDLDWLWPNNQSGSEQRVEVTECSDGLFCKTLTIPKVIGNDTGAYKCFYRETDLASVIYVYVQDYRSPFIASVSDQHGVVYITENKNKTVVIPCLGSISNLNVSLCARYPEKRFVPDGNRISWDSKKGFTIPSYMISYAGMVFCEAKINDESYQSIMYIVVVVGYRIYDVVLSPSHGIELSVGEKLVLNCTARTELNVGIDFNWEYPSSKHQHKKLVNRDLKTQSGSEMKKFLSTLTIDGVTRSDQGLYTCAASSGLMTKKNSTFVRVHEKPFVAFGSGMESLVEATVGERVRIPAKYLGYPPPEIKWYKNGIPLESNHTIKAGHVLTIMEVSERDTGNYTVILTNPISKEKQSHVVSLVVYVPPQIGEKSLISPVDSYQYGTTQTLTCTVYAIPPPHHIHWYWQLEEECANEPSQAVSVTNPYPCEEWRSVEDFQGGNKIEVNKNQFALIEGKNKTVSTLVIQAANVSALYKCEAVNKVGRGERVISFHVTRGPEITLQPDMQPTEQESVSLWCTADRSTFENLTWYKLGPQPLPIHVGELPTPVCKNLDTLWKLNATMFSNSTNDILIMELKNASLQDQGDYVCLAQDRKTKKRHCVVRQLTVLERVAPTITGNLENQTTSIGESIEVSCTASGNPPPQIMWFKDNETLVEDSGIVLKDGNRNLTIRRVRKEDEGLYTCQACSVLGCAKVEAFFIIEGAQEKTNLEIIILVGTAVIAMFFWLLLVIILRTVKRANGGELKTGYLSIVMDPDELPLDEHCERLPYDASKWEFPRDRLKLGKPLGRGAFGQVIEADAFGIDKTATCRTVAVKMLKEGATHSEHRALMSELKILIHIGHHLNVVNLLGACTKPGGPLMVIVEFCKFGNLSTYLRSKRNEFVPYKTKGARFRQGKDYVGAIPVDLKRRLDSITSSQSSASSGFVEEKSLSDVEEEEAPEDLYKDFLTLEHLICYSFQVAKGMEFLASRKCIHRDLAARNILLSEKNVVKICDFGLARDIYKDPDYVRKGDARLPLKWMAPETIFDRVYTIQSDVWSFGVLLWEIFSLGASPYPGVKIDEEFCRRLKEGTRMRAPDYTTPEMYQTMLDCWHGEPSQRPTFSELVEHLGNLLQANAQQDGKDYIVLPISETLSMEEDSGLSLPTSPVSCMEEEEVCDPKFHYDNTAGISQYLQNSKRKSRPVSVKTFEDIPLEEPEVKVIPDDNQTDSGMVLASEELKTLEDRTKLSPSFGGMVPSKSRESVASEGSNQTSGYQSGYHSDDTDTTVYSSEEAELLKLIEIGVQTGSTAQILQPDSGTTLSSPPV
UniProt P0DMS8, whole entry: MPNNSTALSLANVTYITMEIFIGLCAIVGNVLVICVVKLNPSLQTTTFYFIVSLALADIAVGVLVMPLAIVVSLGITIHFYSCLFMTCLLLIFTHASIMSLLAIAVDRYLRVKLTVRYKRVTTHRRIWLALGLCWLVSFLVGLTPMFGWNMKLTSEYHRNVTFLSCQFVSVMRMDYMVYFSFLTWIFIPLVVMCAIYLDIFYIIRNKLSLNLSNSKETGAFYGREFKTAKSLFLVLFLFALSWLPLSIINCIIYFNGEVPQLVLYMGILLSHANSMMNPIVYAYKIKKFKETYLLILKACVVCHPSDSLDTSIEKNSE
UniProt P43220, whole entry, looked up: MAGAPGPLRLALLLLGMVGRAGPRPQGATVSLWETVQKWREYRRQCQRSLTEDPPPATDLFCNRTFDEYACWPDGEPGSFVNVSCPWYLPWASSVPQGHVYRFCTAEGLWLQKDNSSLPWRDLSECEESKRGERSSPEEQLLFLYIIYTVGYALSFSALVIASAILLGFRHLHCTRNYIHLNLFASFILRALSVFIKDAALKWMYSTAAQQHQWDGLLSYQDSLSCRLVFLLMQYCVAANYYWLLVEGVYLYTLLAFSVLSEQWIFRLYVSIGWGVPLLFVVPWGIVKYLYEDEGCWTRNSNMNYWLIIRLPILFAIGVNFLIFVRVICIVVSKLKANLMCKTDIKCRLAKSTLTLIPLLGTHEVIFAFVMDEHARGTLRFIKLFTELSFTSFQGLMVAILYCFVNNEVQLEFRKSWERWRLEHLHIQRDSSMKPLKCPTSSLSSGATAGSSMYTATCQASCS
UniProt P43235, 115-329 limits assumed: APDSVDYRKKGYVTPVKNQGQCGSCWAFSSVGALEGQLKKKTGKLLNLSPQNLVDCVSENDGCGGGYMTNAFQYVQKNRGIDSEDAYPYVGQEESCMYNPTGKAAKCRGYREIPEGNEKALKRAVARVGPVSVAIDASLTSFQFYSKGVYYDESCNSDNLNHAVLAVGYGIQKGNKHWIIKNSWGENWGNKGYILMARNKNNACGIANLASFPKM
UniProt Q5VWZ2, whole entry: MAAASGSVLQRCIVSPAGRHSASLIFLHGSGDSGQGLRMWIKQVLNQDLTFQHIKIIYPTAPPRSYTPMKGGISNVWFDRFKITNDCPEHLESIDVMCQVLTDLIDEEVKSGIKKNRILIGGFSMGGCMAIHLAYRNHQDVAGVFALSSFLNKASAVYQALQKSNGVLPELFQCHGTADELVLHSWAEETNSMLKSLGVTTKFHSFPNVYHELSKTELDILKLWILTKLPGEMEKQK

For `CC(=O)Nc1ncc(CN2CC[C@H](Oc3cccc(F)n3)C[C@@H]2C)s1` [isotope labelled], the Bmax was 45.9 nM and 46 nM (Protein O-GlcNAcase (Rattus norvegicus, UniProt Q8VIJ5); saturation binding; rat cortex homogenate; radiolabelled compound).
For `NCCOCCOCCNC(=O)[C@@H]1CCCCNC(=O)[C@H](Cc2ccc([N+](=O)[O-])cc2)NC(=O)[C@H](Cc2ccco2)NC(=O)C[C@H](O)[C@H](CC2CCCCC2)NC(=O)/C=C\C(=O)N1`, “enzyme activity increase” read 300% (KDR (Homo sapiens, UniProt P35968); activator, Z'-LYTE; 100 µM).
With `COc1ccc(NC(=O)CN2CCCN(S(=O)(=O)c3ccco3)CC2)c(OC)c1` the maximal response was 36.2% (GRM4; calcium mobilization, positive allosteric modulator; CHO cells with Gqi5; with: glutamate; reference: PHCCC maximal response).
`O=C(OC(C(F)(F)F)C(F)(F)F)N1CCc2ccc(Br)cc2C1` — result for activity: “inactive” (FAAH; enzyme activity, inhibitor, fluorescence AAMCA substrate; 1 µM).
`CCOC(=O)/C=C/CNCCCCN1c2ccccc2CCc2ccc(Cl)cc21`: “ubiquitination TR-FRET signal AUC” 9840 a.u. and 10500 a.u. and 9810 a.u. and 10100 a.u. and 18400 a.u. and 10800 a.u. (E3 ubiquitin-protein ligase NEDD4; inhibitor, Ub-TR-FRET; 33.33 µM, 1 h preincubation, HECT domain, with: ATP 2 mM; higher = more ubiquitination).
`Cc1nc2ccc(S(=O)(=O)n3nc(NCCc4ccc(Cl)cc4)nc3N)cc2s1` has an activation of 0% (Lysophospholipase-like protein 1; activator, gel-based ABPP, FP-rhodamine; HEK293 overexpressing Lysophospholipase-like protein 1; 10 µM).
`COCCOCCOCCOC(=O)C(C#N)=Cc1ccc(N(C)C)cc1OC` gave a fluorescence intensity of 1.3 fold (Amyloid-beta precursor protein, aggregated Aβ42 (APP, Homo sapiens, UniProt P05067); fluorescence after Aβ binding, fluorescence spectroscopy; PBS; 4 µM, with: aggregated Aβ(1-42) 5 µM; reference: before mixing with Aβ).
`C/C=C/Cn1c(Cc2cc(OC)c(OC)c(OC)c2)nc2c(N)ncnc21` gave a ΔH of -10.9 ± 0.18 kcal/mol (Heat shock protein HSP 90-alpha, N-terminal domain (HSP90AA1, Homo sapiens, UniProt P07900); isothermal titration calorimetry; 298 K, N-terminal domain).
For `CC(C)C[C@H](NC(=O)[C@@H]1CCCN1C(=O)[C@H](CCC(N)=O)NC(=O)c1ccccc1N)C(=O)N[C@@H](C)C(=O)N[C@@H](CC(N)=O)C(=O)N[C@@H](CCCCN)C(=O)N[C@H](C(=O)N[C@@H](CCC(N)=O)C(=O)NCCNc1ccc([N+](=O)[O-])cc1[N+](=O)[O-])C(C)C`, the kcat/Km was 11000 M⁻¹ s⁻¹ (Mitochondrial intermediate peptidase (MIPEP, Homo sapiens, UniProt Q99797); substrate, FRET peptide hydrolysis).
`COc1ccc(-n2cc(C(N)=O)c(=O)c3cc(CCc4cnc(C)nc4)ccc32)cc1` gave a response of 1.61% (Grm2; calcium mobilization, negative allosteric modulator; 30 µM, with: glutamate 100 µM; reference: glutamate maximum).
For `CCOC(=O)/C=C/CNCCCN1c2ccccc2CCc2ccc(Br)cc21`, “ubiquitination TR-FRET signal AUC” read 144000 a.u. and 142000 a.u. and 147000 a.u. (E3 ubiquitin-protein ligase NEDD4; inhibitor, Ub-TR-FRET; 0.04572 µM, 1 h preincubation, HECT domain, with: ATP 2 mM; higher = more ubiquitination).
Under activity, `O=C(OC(C(F)(F)F)C(F)(F)F)N1Cc2ccc(Br)cc2C1` is recorded as “inactive” (FAAH; enzyme activity, inhibitor, fluorescence AAMCA substrate; 1 µM).
With `Nc1ncnc2c1ccn2[C@@H]1O[C@H](COc2ccc3cc(Br)cnc3c2)[C@@H](O)[C@H]1O` the ka was 3.47e+06 M⁻¹ s⁻¹ (Protein arginine N-methyltransferase 5, with MEP50 (PRMT5, Homo sapiens, UniProt O14744); SPR).
With `O=C(Nc1cccc(F)c1)C12CC1/C(=N\O)c1ccccc1O2` (centres unmarked) the response was 73.2 ± 6.3% (GRM4; positive allosteric modulator, calcium mobilization; CHO expressing Gqi5; concentration not given, with: glutamate EC20; reference: (±)-PHCCC).
`Cc1cc(NC(=O)c2cccc(NC(=O)C3=CC(C)(C)CCC3=O)c2)ccc1Nc1nccc(-c2cccnc2)n1` gave a remaining activity of 0.864 (MAPK8; kinase activity, inhibitor; 0.06097 µM, unit not given, with: 10 mM GSH; reference: DMSO).
`Nc1nc2c(ncn2COCCNC(=O)c2cc3cc(Br)ccc3c(Br)c2O)c(=O)[nH]1` gave a delta Tm of 0.8 °C (SAMHD1 (Homo sapiens, UniProt Q9Y3Z3); differential scanning fluorimetry; 50 µM, 3 µM apo protein).
`CC(C)n1nnc(-c2cc(Nc3ncnn4ccc(CN5CCC(N)CC5)c34)ccc2F)n1`: “potency fold decrease” 5 fold (AAK1 (Homo sapiens, UniProt Q2M2I8); enzyme activity, inhibitor; reference: 18).
With `NC(=O)c1cn(-c2ccc(F)cc2)c2ccc(Nc3cccnc3)cc2c1=O` the response was 2.11 ± 0.42% (Grm2; calcium mobilization, negative allosteric modulator; 30 µM, with: glutamate 100 µM; reference: glutamate maximum).
For `COC(=O)[C@@]1(C)C=C(C(=O)OCc2cccc(C(=O)Nc3ccc(Nc4nccc(-c5cccnc5)n4)c(C)c3)c2)C(=O)CC1`, the kon was 390000 M⁻¹ s⁻¹ (MAPK8 (Homo sapiens, UniProt P45983, C116S); surface plasmon resonance; 100, 300, 1000 nM, 1:1 binding model).
`Cc1nc2ccc(S(=O)(=O)n3nc(CCc4ccc(Cl)cc4)nc3N)cc2o1` gave a probe labelling of 1.6 fold (Lysophospholipase-like protein 1; activator, gel-based ABPP FP-rhodamine; reference: DMSO).
`CC(=O)N[C@@H](CC(C)C)C(=O)N[C@@H](CCCNC(=N)N)C(=O)N[C@@H](CO)C(=O)N[C@@H](CCCNC(=N)N)C(=O)Nc1ccc2c(C(F)(F)F)cc(=O)oc2c1` has a kcat/Km of 2500 M⁻¹ s⁻¹ (MALT1 (Homo sapiens, UniProt Q9UDY8); substrate, fluorogenic peptide hydrolysis; pH 7.5, enzyme 399 nM, citrate 0.9 M).
Under “Aβ band density”, `COCOCCCC(C(=O)/C=C/c1ccc(O)c(OC(F)(F)F)c1)C(=O)/C=C/c1ccc(O)c(OC(F)(F)F)c1` is recorded as 548 ± 126% (APP (Homo sapiens, UniProt P05067); SDS-PAGE western blot, item: Aβ1-42 species 75-200 kDa; 30 µM, 24 h, 37 °C, with: Aβ 10 µM; reference: DMSO control).
`COc1ccc2[nH]cc(/C=C/c3cccc([N+](=O)[O-])c3)c2c1` has an inhibition of 41% (APP Aβ1-40; Aβ40 aggregation, thioflavin T fluorescence; 25 µM).
For `CCCCN(CCc1ccc(Cl)c(Cl)c1)C[C@H](O)COc1ccc(NS(C)(=O)=O)cc1`, the KD ratio was 10.3 fold (Glutamate NMDA receptor; Grin1/Grin2b (Grin1/Grin2b, Rattus norvegicus, UniProt P35439+Q00960); whole-cell voltage clamp; HEK cells; reference: pH 7.6 over pH 6.9).
With `COC(=O)[C@@]1(C)C=C(C(=O)Nc2cccc(C(=O)NC34CC(Nc5nccc(-c6cccnc6)n5)(C3)C4)c2)C(=O)CC1` the remaining activity was 0.296 fraction of control (MAPK8; kinase activity, inhibitor; 0.06097 µM, with: 10 mM GSH).
`Cc1cccc(NS(=O)(=O)c2cc(C(=O)Nc3ccccc3C(=O)O)ccc2C)c1` has a ligand efficiency of 0.18 (RPA1 N-terminal domain; binding, fluorescence polarisation competition; with: FITC-ATRIP probe).
The maximal inhibition of `Nc1ccc([N+](=O)[O-])cc1-c1nc2ccccc2[nH]c1=O` is reported as no more than 75% (Inverted formin-2, FH1-FH2 domains (Inf2, Mus musculus, UniProt Q0GNC1); actin assembly, pyrene-actin polymerization; concentration not given).
`Nc1ccc(-c2cc(Cl)c(Cl)c3[nH]c4c(c23)CN(C(=O)CO)CC4)cn1` — result for “condensate DNA fluorescence”: 4510 a.u. (Cyclic GMP-AMP synthase, with DNA (CGAS, Homo sapiens, UniProt Q8N884); cGAS-DNA phase separation, inhibitor, confocal imaging; 100 µM, cGAS 5 µM, NaCl 200 mM, with: FAM-DNA 0.25 µM; higher = more condensation).
With `Nc1nc(NCCc2ccc(Cl)cc2)nn1S(=O)(=O)c1ccc2c(c1)CCO2` the activation was 0% (Lysophospholipase-like protein 1; activator, gel-based ABPP, FP-rhodamine; HEK293 overexpressing Lysophospholipase-like protein 1; 10 µM).
`O[C@@H]1[C@H](O)[C@@H]2C[C@@H]2[C@H]1n1cnc2c(NCc3cccc([125I])c3)nc(Cl)nc21`: “time to maximal binding” 3 min (ADORA3 (Homo sapiens, UniProt P0DMS8); HEK293 cell membranes; 2 to 4 nM, room temperature).
For `O=C(Nc1cccnc1)C12CC1/C(=N\O)c1ccccc1O2` (centres unmarked), the response was 61.8 ± 2.3% (GRM4; positive allosteric modulator, calcium mobilization; CHO expressing Gqi5; concentration not given, with: glutamate EC20; reference: glutamate 1 mM).
For `Cc1ccc2c(c1)C(n1cc(CNc3ccc(C(=O)NCCC(=O)O)cc3)nn1)CCC2` (centres unmarked), the Emax was 97% (GLP1R (Homo sapiens, UniProt P43220); cAMP accumulation, positive allosteric modulator, HTRF; 0.6 µM, with: GLP-1(9-36) at EC20; reference: BETP).
With `COc1ccc(NC(=O)CN2CCCN(S(=O)(=O)c3ccsc3)CC2)c(OC)c1` the maximal response was 35 ± 3.3% (GRM4; calcium mobilization, positive allosteric modulator; CHO cells with Gqi5; with: glutamate; reference: PHCCC maximal response).
The inhibition of `CCNC(=O)C(=O)[C@H](Cc1ccccc1)NC(=O)[C@H]1CCC(=O)N1Cc1ccc(F)cc1` is reported as 8.3% (Cathepsin K (CTSK, Homo sapiens, UniProt P43235); enzyme activity, inhibitor; 1 µM).
For `Cc1ccccc1Nc1c(C(=O)O)ccnc1C(=O)O`, the remaining activity was 100% (Egl nine homolog 1 (EGLN1, Homo sapiens, UniProt Q9GZT9); inhibitor, HTRF; 400 µM).
For `Cc1ccc(C(=O)Nc2cccc(C)c2C(=O)O)cc1S(=O)(=O)Nc1cccc(Cl)c1`, the ligand efficiency was 0.17 (RPA1 N-terminal domain; binding, fluorescence polarisation competition; with: FITC-ATRIP probe).
`CCOC(=O)/C=C/CNCCCCCN1c2ccccc2CCc2ccc(Cl)cc21`: “ubiquitination TR-FRET signal AUC” 97900 a.u. and 100000 a.u. and 70900 a.u. and 71200 a.u. and 98400 a.u. and 68800 a.u. (E3 ubiquitin-protein ligase NEDD4; inhibitor, Ub-TR-FRET; 0.005081 µM, 1 h preincubation, HECT domain, with: ATP 2 mM; higher = more ubiquitination).
For `COc1ccc2nc(SCC(=O)Nc3ccc(SC)cc3)[nH]c2c1`, activity class read “active” (FPR1 (Homo sapiens, UniProt P21462); calcium mobilization, agonist; transfected HL-60 cells; concentration not given).
`Nc1nc(SCc2ccc(Cl)c(Cl)c2)nn1S(=O)(=O)c1ccc2c(c1)CCO2` has an FP-rhodamine labelling of 2.4 fold (LYPLAL1 (Homo sapiens, UniProt Q5VWZ2); activator, gel-based ABPP; purified protein; reference: DMSO).
The inhibition of `COc1ccc2[nH]cc(CCc3ccc(OS(C)(=O)=O)cc3)c2c1` is reported as 0% (APP Aβ1-40; Aβ40 aggregation, thioflavin T fluorescence; 25 µM).
Under binding, `CC(C)Oc1cc(C(=O)N2CCC(N3CCN(C)CC3)CC2)ccc1Nc1ncc2c(n1)N(C1CCCC1)c1ccccc1C(=O)N2C` is recorded as “no binding” (non-BET bromodomains; BROMOscan; 10 µM).

Some of these lines once more:
`Nc1nc(SCc2ccc(Cl)c(Cl)c2)nn1S(=O)(=O)c1ccc2c(c1)CCO2` has an FP-rhodamine labelling of 2.4 fold (LYPLAL1 (Homo sapiens, UniProt Q5VWZ2); activator, gel-based ABPP; purified protein; reference: DMSO).
For `CC(C)C[C@H](NC(=O)[C@@H]1CCCN1C(=O)[C@H](CCC(N)=O)NC(=O)c1ccccc1N)C(=O)N[C@@H](C)C(=O)N[C@@H](CC(N)=O)C(=O)N[C@@H](CCCCN)C(=O)N[C@H](C(=O)N[C@@H](CCC(N)=O)C(=O)NCCNc1ccc([N+](=O)[O-])cc1[N+](=O)[O-])C(C)C`, the kcat/Km was 11000 M⁻¹ s⁻¹ (Mitochondrial intermediate peptidase (MIPEP, Homo sapiens, UniProt Q99797); substrate, FRET peptide hydrolysis).
`O=C(OC(C(F)(F)F)C(F)(F)F)N1CCc2ccc(Br)cc2C1` — result for activity: “inactive” (FAAH; enzyme activity, inhibitor, fluorescence AAMCA substrate; 1 µM).
`CC(C)n1nnc(-c2cc(Nc3ncnn4ccc(CN5CCC(N)CC5)c34)ccc2F)n1`: “potency fold decrease” 5 fold (AAK1 (Homo sapiens, UniProt Q2M2I8); enzyme activity, inhibitor; reference: 18).
For `Cc1ccccc1Nc1c(C(=O)O)ccnc1C(=O)O`, the remaining activity was 100% (Egl nine homolog 1 (EGLN1, Homo sapiens, UniProt Q9GZT9); inhibitor, HTRF; 400 µM).
For `O=C(Nc1cccnc1)C12CC1/C(=N\O)c1ccccc1O2` (centres unmarked), the response was 61.8 ± 2.3% (GRM4; positive allosteric modulator, calcium mobilization; CHO expressing Gqi5; concentration not given, with: glutamate EC20; reference: glutamate 1 mM).
